Experimental data collected from several papers.
Lines come from different studies, so protocols differ. ± gives the spread as reported.
Sequence of UniProt O75116 (whole entry, looked up): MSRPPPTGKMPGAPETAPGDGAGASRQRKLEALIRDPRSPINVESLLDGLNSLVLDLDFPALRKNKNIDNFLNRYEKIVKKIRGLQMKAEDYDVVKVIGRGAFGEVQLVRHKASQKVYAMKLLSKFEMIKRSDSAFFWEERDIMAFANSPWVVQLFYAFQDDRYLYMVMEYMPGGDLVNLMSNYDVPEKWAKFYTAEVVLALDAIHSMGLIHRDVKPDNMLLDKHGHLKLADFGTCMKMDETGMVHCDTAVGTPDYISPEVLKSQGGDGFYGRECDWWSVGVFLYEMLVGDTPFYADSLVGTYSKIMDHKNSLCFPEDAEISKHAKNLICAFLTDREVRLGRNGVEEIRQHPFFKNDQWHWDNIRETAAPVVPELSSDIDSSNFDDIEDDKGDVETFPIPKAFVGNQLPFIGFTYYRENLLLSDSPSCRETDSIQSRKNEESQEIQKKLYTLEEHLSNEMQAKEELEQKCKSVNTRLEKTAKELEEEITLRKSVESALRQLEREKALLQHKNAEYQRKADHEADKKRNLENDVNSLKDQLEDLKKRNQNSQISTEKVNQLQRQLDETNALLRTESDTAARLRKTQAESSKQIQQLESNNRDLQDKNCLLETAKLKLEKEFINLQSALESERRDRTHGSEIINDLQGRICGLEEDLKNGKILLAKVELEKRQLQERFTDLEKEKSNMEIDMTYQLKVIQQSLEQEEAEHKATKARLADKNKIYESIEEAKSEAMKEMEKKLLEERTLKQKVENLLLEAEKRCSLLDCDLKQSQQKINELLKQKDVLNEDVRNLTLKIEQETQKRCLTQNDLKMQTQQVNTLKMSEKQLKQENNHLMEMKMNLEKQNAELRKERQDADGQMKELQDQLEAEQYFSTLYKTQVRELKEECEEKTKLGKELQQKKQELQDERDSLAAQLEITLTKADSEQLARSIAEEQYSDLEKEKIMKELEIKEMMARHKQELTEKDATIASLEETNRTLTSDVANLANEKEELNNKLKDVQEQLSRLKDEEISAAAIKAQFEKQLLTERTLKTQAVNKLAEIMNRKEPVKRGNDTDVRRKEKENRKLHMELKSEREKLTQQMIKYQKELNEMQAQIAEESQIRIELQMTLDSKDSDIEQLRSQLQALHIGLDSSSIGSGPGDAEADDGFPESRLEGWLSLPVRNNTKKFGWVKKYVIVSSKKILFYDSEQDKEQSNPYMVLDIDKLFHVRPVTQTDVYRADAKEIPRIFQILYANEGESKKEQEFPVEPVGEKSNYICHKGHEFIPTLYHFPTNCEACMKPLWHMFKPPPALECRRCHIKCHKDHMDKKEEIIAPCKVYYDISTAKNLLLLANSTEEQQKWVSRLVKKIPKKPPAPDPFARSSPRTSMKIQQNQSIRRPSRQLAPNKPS

With `CCc1ccc(CC/C=C/c2ccc3c(c2)C(=O)CC3)cc1` the Mononuclear percentage was 3.27% (Sprague-Dawley rat, female; oral, 120 mg/kg/day, 14 days).
Under “incidence of Dyspnea TEAE”, `CO[C@H]1C[C@@H]2CC[C@@H](C)[C@@](O)(O2)C(=O)C(=O)N2CCCC[C@H]2C(=O)O[C@H]([C@H](C)C[C@@H]2CC[C@@H](OC(=O)NCCOCCOCCOCCOCCOCCOCCOCCOCCC(=O)N3CCc4cc(Cn5nc(-c6ccc7oc(N)nc7c6)c6c(N)ncnc65)ccc4C3)[C@H](OC)C2)C[C@@H](O)[C@H](C)/C=C(\C)[C@@H](O)[C@@H](OC)C(=O)[C@H](C)C[C@H](C)/C=C/C=C/C=C/1C` is recorded as 0% (patients with advanced solid tumours; intravenous, 1.6 mg/3 mg weekly, grade ≥3).
With `O.O.O.O.O.O.[Cl-].[Cl-].[Co+2]` the reticulocytes was 15.2% (Crl:CD(SD) rat male, blood; oral, 0.74 mg Co/kg/day, 90 days; relative to: red blood cells).
`CCN1[C@@H](C(=O)NC23CCC(C(=O)O)(CC2)CC3)[C@H](c2cccc(Cl)c2F)[C@]2(C(=O)Nc3cc(Cl)ccc32)C12CCCCC2` — result for “grade 3/4 thrombocytopenia incidence”: 33.3% (patients with advanced solid tumours; oral, dose not given, all doses).
With `CC(C)C[C@@H]1NC(=O)[C@H](CCCCN)NC(=O)[C@H](CC(N)=O)NC(=O)[C@H](CCCNC(=N)N)NC(=O)[C@H]([C@@H](C)O)NC(=O)[C@@H]2CSSC[C@@H]3NC(=O)[C@H]([C@@H](C)O)NC(=O)CNC(=O)CNC(=O)[C@H](C(C)C)NC(=O)[C@@H]4CSSC[C@H](NC(=O)[C@H]([C@@H](C)O)NC(=O)[C@H](CSSC[C@H](NC(=O)[C@H](C(C)C)NC(=O)[C@@H]5CCCN5C1=O)C(=O)NCC(=O)N[C@@H](CCC(=O)O)C(=O)N[C@@H]([C@@H](C)O)C(=O)N4)NC(=O)CNC(=O)[C@@H]1CCCN1C(=O)[C@H]([C@@H](C)O)NC(=O)[C@H](CC(N)=O)NC3=O)C(=O)N[C@@H](CO)C(=O)N[C@@H](Cc1c[nH]c3ccccc13)C(=O)N1CCC[C@H]1C(=O)N[C@@H](C(C)C)C(=O)N2` the remaining peptide was 96.1 ± 0.3% (HPLC; ammonium bicarbonate 0.1 M; 180 µM, 7 days, pH 9.0, 37 °C, deamidation stability).
`OCc1ncc2n1-c1ccc(Cl)cc1C(c1ccccc1F)=NC2` gave an AUClast increase of 5% (CYP3A4 (human); human, plasma; oral, 2 mg midazolam, added: encorafenib at steady state; relative to: Day -7 probe alone).
The Diarrhea incidence of `COc1cc2c(Oc3ccc4[nH]c(C)cc4c3F)ccnc2cc1OCC1(N)CC1` is reported as 0% (paediatric recurrent refractory sarcoma; 8 mg).
`COc1ncnn2ccc(-c3cnc4nc(C)n(Cc5nnc([C@@H](C)F)o5)c4c3)c12`: “incidence of decreased WBC (all grades)” 14.3% (human patients; oral, dose not given).
`O=S(=O)(Nc1ccccc1)c1ccc(NC(=S)Nc2ccccc2)cc1`: “blood chemistry level” 0.8 mg/dL (item: TBIL; female mouse, blood; oral, 20 mg/kg daily, 14 days).
Under “platelet count decreased DLT”, `Cn1cncc1-c1c(F)cncc1NC(=O)c1c(N)nn2cc(F)cnc12` is recorded as 2% (human patients; oral, dose not given, 21 days, all doses).
For `O=C1Nc2cc3[nH]nc(-c4ccncc4)c3cc2CN1Cc1ccccc1`, “patients with TEAE” read 22% (item: infusion-related reaction; patients with advanced solid tumours; intravenous, dose not given).
`CN[C@H]1CC[C@@H](c2ccc(Cl)c(Cl)c2)c2ccccc21`: “elimination rate constant” 4.5e-05 s⁻¹ (CD-1 mouse, male, lung; intraperitoneal, 3 mg/kg).
For `C[C@@H]1OC(=O)NN=C1c1ccc(-c2ccc(F)cc2)c(C(F)(F)F)c1`, “patients with adverse event” read 0% (phase I trial, item: abdominal distension worst grade 1; human patients; 5 mg loading then 0.25 mg daily).
`CN1CCN(S(=O)(=O)c2cc([N+](=O)[O-])ccc2N(CCOS(C)(=O)=O)CCOS(C)(=O)=O)CC1` gave a concentration of 5.06 µM (NSG mice female, plasma; intraperitoneal, 10 mg/kg, 0.25 h).
For `O=C(Nc1ccccc1)C1CCN(C(=O)Oc2cccnc2)CC1`, “change in withdrawn–gregarious score” read 1.6 (Bond-Lader VAS; healthy women; oral, 20 mg; relative to: pre-dose baseline, direction not given).
For `O=C(Nc1ccccc1)C1CCN(C(=O)Oc2cccnc2)CC1`, “adverse event incidence” read 29% (item: Headache; healthy female human; concentration not given, all doses pooled).
`CN1CC[C@@H](c2c(O)cc(O)c3c(=O)cc(-c4ccc(C(F)(F)F)cc4Cl)oc23)[C@@H]1CO`: “patients with adverse event” 0% (item: Sepsis; B-cell malignancies; oral, 150 mg, intermittent dosing).
`CCC[C@@](N)(CO)CCc1ccc(OCCCCCC(C)C)cc1` gave an AUC(0-inf) of 20.7 µM·h (male hound dog, plasma; oral, 20 mg/kg, capsule, fasted, geometric mean).
For `c1ccc2c(c1)-c1ccc3ccc4cccc5cc-2c1c3c45`, “literature range factor” read 3 (PDMS-water partitioning; PAH compilation; relative to: maximum over minimum K).
Under “any grade ≥3 adverse event”, `NC(=O)[C@H]1CCN(c2ncnc(N)c2F)C[C@@H]1N1CCC[C@@H](Nc2cc(Cl)cc(C(F)(F)F)c2)C1=O` is recorded as 20% (B-cell malignancy patients; oral, 246 mg twice daily, dose).
The IC50 of `N=C(N)NC(=N)Nc1cccc(Cl)c1` is reported as 7.94 µM (Plasmodium falciparum; HB3).
For `COc1ccc2nc3cc(Cl)ccc3c(Nc3cc(CN4CCCC4)c(O)c(CN4CCCC4)c3)c2n1`, the neutrophils was 15.6% (mouse, blood; intraperitoneal, 14 mg/kg).
`Cc1c(COC(=O)[C@@H]2[C@H](/C=C(\Cl)C(F)(F)F)C2(C)C)cccc1-c1ccccc1` (racemic) has a CLint of 0.0859 mL/min/mg protein (pooled human liver microsomes).
`CC(=O)N[C@@H](CC(N)=O)C(=O)N[C@@H](CC(N)=O)C(=O)N[C@@H](CC(C)C)C(=O)N[C@H]1CSSC[C@@H](C(=O)N[C@H](C(N)=O)[C@@H](C)O)NC(=O)[C@H](CCCNC(=N)N)NC(=O)[C@H](Cc2c[nH]cn2)NC(=O)[C@H](Cc2cccc3ccccc23)NC(=O)CNC(=O)[C@H](Cc2c[nH]c3ccccc23)NC(=O)[C@H](CC(=O)O)NC(=O)[C@H](CCC(N)=O)NC(=O)[C@H](Cc2c[nH]c3ccccc23)NC(=O)[C@H](C(C)C)NC1=O`: “log retention factor” 0.32 (isocratic RP-HPLC; C18 column; pH 7.4, 25 °C, elution method 2; higher = more lipophilic).
The drug concentration of `COc1ncccc1-c1cnn2ccc(N3CCN(C(=O)OC(C)C)CC3)nc12` is reported as 6 µM (mouse nerve ligation model, plasma; oral, 30 mg/kg, 120 min after last dose, repeat dosing day 1).
For `C[C@H]1CN(c2n[nH]c3nc(N[C@H]4CC[C@H](NS(=O)(=O)CCC(F)(F)F)CC4)ncc23)CCO1`, the relative abundance was 0.99 (Rho-associated protein kinase 2 (ROCK2, Homo sapiens, UniProt O75116); inhibitor, Kinobeads competition profiling; 0.8 µM; relative to: vehicle).
For `Clc1cc(-c2cc(Cl)c(Cl)c(Cl)c2)cc(Cl)c1Cl`, the log K(PDMS-water) was 5.76 ± 0.17 (fresh water; 20 °C, SSP sampler, 100 µm).
For `C[C@H]1C[C@@H](N2C(=N)N[C@](C)(c3cccc(NC(=O)c4cccc(C#N)c4)c3Cl)CC2=O)CCO1`, “reticulocytes count change” read -41% (rat; 1000 mg/kg, every other day).
The eosinophils of `CC(C)[C@@H]1NC(=O)CNC(=O)[C@H](CC(N)=O)NC(=O)[C@H](CCCNC(=N)N)NC(=O)[C@H](Cc2ccc(O)cc2)NC(=O)[C@H](C(C)C)NC(=O)[C@@H](NC(=O)[C@@H](NC(=O)[C@H](CC(N)=O)NC(=O)[C@H](Cc2c[nH]c3ccccc23)NC(=O)[C@H](C)NC(=O)[C@H](Cc2ccccc2)NC(=O)CN)C(C)C)CSSC[C@@H](C(=O)N[C@@H](Cc2cnc[nH]2)C(=O)N[C@@H](CCCNC(=N)N)C(=O)N[C@@H](CCCNC(=N)N)C(=O)N[C@@H](C)C(=O)N[C@@H](CC(N)=O)C(N)=O)NC(=O)[C@H](C(C)C)NC(=O)[C@H](CCCNC(=N)N)NC1=O` is reported as 2.22 ± 0.11% (ICR mice, blood; intraperitoneal, 10 mg/kg, day 5).
`CC(CN1c2ccccc2Sc2ccccc21)N(C)C` (stereo not shown) has an IC50 of 6.31 µM (Plasmodium falciparum; GB4).
`CCCCc1nc2cc(/C=C/C(=O)NO)ccc2n1CCN(CC)CC` has a body weight of 95% (mouse, SET-2 subcutaneous xenograft; 125 mg/kg every other day, day 18; relative to: baseline).
